# Measurements from different studies.
# Protein sequences, listed by entry. Tags and fused reporters are not part of them. Residues count along the entry.
# UniProt P43220, whole entry, looked up: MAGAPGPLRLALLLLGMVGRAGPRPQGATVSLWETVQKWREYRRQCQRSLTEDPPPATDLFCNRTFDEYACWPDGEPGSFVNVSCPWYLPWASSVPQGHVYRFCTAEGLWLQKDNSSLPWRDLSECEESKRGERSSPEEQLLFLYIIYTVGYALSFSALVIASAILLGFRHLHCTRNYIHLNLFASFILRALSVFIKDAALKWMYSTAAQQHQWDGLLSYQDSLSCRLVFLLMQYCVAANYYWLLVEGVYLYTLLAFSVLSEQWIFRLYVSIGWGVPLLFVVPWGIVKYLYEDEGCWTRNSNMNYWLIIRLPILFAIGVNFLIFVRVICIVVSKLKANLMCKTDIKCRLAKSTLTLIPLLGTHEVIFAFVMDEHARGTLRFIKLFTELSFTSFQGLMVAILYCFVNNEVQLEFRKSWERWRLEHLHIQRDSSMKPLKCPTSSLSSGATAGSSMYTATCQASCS
# UniProt Q3UFF7, whole entry: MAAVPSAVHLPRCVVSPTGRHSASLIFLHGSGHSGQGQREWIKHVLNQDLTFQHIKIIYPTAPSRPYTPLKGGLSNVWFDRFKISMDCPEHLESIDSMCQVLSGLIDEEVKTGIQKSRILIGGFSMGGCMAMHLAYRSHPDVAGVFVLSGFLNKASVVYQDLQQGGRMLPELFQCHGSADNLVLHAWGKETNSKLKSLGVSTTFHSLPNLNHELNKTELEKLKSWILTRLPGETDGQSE
# UniProt Q14833, 33-912 limits assumed: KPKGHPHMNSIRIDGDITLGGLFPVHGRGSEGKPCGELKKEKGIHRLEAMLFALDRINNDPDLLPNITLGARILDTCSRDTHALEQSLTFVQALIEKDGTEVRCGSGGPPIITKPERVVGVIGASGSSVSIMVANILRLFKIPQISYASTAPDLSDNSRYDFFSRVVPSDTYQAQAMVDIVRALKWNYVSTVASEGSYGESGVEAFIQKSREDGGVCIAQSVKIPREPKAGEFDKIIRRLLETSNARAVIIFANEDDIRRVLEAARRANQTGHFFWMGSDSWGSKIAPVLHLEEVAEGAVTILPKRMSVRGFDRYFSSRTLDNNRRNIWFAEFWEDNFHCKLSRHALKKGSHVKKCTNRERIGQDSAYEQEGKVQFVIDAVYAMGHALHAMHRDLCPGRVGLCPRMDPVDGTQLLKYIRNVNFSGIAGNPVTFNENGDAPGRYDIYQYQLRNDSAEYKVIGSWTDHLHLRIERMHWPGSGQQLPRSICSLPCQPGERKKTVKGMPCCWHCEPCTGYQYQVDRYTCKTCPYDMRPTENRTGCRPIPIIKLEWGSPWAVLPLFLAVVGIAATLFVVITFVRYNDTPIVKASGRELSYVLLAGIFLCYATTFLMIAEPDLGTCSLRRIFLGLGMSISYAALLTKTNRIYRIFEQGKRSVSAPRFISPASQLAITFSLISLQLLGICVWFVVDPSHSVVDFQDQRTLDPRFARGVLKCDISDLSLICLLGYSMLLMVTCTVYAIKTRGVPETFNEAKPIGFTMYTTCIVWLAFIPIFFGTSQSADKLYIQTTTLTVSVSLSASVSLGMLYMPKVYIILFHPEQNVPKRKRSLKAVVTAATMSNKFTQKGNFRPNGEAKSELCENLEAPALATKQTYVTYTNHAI
# UniProt P33033, whole entry: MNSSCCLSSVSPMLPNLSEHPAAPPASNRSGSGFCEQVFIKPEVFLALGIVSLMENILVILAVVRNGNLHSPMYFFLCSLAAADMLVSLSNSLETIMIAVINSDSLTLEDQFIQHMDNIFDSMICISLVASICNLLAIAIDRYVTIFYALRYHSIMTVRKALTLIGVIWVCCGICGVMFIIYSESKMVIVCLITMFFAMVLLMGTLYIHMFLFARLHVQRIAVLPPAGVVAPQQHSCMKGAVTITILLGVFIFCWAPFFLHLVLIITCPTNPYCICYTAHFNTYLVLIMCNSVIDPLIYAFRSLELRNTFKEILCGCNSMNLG
# UniProt P25090, whole entry: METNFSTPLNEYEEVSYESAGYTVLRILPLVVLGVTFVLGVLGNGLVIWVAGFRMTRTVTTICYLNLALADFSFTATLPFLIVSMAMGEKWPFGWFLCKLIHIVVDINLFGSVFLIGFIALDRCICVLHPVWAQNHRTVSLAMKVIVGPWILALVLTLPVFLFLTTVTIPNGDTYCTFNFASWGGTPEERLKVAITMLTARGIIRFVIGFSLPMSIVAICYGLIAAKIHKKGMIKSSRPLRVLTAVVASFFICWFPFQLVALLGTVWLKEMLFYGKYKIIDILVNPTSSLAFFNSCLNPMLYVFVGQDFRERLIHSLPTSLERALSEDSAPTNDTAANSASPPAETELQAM
# UniProt Q5JUK3, whole entry: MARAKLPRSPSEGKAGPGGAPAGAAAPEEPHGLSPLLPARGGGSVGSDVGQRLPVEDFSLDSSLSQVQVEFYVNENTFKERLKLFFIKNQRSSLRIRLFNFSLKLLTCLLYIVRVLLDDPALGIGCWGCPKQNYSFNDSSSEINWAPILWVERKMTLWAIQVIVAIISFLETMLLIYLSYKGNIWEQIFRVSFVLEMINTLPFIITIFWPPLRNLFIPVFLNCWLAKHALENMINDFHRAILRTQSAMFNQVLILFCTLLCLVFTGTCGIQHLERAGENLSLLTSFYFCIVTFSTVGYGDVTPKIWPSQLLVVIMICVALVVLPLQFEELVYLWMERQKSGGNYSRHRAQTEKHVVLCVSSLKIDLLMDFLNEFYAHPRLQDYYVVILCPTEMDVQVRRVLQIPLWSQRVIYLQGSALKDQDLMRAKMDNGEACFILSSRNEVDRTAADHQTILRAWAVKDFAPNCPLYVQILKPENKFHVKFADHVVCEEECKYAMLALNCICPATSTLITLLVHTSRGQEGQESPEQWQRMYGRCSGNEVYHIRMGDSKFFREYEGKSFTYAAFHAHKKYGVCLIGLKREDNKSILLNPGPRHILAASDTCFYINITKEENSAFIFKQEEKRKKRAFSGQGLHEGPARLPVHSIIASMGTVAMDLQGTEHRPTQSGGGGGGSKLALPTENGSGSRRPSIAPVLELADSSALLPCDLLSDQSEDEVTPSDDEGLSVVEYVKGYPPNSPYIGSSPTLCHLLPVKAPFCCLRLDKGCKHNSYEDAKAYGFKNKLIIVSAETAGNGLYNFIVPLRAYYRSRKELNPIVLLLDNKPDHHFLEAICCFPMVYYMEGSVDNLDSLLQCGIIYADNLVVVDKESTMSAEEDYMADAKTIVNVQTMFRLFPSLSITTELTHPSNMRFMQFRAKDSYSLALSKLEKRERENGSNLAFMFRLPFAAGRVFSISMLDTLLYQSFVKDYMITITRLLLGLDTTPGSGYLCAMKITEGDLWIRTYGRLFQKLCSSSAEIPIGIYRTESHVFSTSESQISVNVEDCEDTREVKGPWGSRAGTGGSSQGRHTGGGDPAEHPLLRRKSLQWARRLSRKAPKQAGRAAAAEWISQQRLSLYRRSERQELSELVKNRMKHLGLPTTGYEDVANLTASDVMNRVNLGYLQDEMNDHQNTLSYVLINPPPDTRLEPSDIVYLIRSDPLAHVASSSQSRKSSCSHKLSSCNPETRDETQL
# UniProt Q923Y9, whole entry M268T/N287Y: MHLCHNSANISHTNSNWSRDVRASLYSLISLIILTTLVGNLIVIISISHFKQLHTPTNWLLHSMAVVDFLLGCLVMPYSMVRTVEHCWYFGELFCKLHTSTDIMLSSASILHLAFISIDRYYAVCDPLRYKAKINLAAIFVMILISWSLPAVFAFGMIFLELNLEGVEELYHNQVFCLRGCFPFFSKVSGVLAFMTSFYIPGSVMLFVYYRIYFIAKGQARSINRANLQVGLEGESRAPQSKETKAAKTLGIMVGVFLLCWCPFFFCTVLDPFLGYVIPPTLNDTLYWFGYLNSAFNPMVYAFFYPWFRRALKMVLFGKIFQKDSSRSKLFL
# UniProt P01106, whole entry: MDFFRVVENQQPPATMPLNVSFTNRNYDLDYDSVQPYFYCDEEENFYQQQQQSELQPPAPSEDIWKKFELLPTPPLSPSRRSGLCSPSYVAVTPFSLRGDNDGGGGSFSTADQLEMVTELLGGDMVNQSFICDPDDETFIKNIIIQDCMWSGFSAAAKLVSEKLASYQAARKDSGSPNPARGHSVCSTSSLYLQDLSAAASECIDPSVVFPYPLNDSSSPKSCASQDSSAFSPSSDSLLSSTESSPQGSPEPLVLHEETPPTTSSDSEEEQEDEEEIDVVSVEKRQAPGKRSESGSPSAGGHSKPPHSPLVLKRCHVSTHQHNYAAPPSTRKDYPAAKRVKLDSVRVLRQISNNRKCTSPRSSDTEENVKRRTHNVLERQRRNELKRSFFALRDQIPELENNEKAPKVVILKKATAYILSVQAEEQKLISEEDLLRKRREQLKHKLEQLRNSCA
# UniProt P45983, whole entry: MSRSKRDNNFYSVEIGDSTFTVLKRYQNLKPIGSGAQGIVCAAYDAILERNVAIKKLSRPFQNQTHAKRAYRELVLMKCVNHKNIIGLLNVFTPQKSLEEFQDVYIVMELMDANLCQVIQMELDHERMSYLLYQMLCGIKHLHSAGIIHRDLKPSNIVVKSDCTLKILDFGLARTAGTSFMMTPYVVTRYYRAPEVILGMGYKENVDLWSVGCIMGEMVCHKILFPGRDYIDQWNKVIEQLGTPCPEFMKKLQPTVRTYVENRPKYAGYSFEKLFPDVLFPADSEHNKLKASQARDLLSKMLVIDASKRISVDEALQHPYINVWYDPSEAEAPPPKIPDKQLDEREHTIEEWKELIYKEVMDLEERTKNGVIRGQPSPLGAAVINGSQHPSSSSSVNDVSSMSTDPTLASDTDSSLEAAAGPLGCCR
# UniProt Q5VWZ2, whole entry: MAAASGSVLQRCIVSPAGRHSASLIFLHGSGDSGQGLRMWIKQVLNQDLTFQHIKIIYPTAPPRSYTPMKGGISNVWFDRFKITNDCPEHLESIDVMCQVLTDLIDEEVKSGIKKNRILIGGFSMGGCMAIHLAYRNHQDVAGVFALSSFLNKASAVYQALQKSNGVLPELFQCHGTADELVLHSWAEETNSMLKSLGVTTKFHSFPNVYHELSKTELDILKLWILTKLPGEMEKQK
# UniProt O60603, 21-784 limits assumed: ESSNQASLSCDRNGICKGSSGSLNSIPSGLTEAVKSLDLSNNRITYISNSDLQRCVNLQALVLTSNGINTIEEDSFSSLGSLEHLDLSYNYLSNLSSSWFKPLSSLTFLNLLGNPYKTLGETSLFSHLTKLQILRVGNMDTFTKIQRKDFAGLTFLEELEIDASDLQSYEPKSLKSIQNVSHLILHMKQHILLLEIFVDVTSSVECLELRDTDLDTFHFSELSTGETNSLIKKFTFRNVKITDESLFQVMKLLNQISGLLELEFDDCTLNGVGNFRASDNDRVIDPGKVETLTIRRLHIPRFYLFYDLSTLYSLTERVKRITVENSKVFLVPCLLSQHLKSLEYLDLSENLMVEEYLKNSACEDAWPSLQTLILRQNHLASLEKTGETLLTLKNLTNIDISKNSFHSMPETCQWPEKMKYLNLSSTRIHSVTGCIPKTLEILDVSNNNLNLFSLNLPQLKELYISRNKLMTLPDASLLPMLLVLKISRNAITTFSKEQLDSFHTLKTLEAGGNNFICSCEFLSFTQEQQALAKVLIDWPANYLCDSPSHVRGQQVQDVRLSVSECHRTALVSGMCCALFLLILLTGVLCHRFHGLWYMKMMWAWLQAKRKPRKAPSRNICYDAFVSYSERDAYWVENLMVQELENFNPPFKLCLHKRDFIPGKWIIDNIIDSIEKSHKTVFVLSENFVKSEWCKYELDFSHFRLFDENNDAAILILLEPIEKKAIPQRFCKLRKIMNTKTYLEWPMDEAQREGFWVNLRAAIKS
# UniProt P47895, whole entry: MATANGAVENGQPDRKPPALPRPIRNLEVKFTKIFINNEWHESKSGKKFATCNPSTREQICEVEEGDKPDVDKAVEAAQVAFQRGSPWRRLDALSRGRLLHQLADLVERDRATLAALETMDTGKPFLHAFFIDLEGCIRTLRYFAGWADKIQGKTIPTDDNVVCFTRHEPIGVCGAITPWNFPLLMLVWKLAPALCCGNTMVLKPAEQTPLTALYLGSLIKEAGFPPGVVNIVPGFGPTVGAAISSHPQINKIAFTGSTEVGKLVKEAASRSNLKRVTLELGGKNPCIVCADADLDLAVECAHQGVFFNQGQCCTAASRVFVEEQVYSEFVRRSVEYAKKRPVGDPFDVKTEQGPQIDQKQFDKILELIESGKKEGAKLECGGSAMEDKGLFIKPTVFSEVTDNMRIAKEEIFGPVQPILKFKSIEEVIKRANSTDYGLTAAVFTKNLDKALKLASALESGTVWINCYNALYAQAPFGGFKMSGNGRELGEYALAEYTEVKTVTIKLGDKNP
# UniProt P56450, whole entry: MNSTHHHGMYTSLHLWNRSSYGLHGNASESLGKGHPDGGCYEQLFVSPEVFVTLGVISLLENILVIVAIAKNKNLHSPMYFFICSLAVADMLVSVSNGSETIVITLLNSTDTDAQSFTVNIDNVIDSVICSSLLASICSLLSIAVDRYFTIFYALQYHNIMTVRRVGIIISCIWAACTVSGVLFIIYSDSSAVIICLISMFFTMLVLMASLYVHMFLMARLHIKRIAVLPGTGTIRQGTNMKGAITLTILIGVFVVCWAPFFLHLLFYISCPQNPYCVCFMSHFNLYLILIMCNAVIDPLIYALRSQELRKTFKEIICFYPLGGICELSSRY
# Compare with care: the assays were run in different laboratories. Several values in a cell are separate wells, animals, samples, runs or records. ± gives the spread as reported.
# GLP1R: Glucagon-like peptide 1 receptor (GLP1R, Homo sapiens, UniProt P43220)
# Lysophospholipase-like protein 1: Lysophospholipase-like protein 1 (Mus musculus, UniProt Q3UFF7)
# GRM4: Metabotropic glutamate receptor 4 (GRM4, Homo sapiens, UniProt Q14833)
# Melanocortin receptor 3: Melanocortin receptor 3 (Mus musculus, UniProt P33033)
# LDHA: L-lactate dehydrogenase A chain (LDHA, Homo sapiens, UniProt P00338)
# FPR2: N-formyl peptide receptor 2 (FPR2, Homo sapiens, UniProt P25090)
# KCNT1: Potassium channel subfamily T member 1 (KCNT1, Homo sapiens, UniProt Q5JUK3)
Structure (SMILES),target,assay,system,conditions,EC50
CC(C)(Cn1cc(-c2ccc(S(C)(=O)=O)cc2)nn1)c1c[nH]c2ccccc12,GLP1R,"cAMP accumulation, positive allosteric modulator, HTRF",CHO-K1 expressing GLP1R,"purified compound, with: GLP-1(9-36) at EC20",1160 ± 255 nM
Nc1nc(SCc2ccc(Cl)cc2)nn1S(=O)(=O)c1ccc2[nH]cnc2c1,Lysophospholipase-like protein 1,"enzyme activity, activator, gel-based ABPP, FP-rhodamine",purified protein,,380 nM
Cc1[nH]c2cc(Cl)cc(Cl)c2c1CCn1cc(C2(O)COC2)nn1,GLP1R,"cAMP accumulation, positive allosteric modulator, HTRF",CHO-K1 expressing GLP1R,"crude reaction product, with: GLP-1(9-36) at EC20",394 nM
O=C(Nc1cccnc1)C12CC1/C(=N\O)c1ccccc1O2 (stereo not drawn),GRM4,"calcium mobilization, positive allosteric modulator",CHO hmGluR4/Gqi5,with: glutamate EC20,> 5000 nM
COc1cccc(Cc2cc(C)nn(C(C(=O)Nc3ccc(Br)cc3)C(C)C)c2=O)c1 (racemic),"fMet-Leu-Phe receptor (FPR1, Homo sapiens, UniProt P21462)","calcium mobilization, agonist",HL-60 transfected with FPR1,,2000 nM
COc1ccc(NC(=O)CN2CCCN(S(=O)(=O)c3ccc(C)cc3C)CC2)c(OC)c1,GRM4,"calcium mobilization, positive allosteric modulator",CHO cells with Gqi5,with: glutamate EC20,1300 ± 500 nM
Cc1nc2ccc(S(=O)(=O)n3nc(CCc4ccc(Cl)cc4)nc3N)cc2o1,Lysophospholipase-like protein 1,"enzyme activity, activator, gel-based ABPP, FP-rhodamine",purified protein,,6500 nM
NCCCCNC(=O)[C@H](Cc1ccc(I)cc1)NC(=O)N1CCc2ccccc2C1,Melanocortin receptor 3,"reporter gene, agonist, β-galactosidase reporter",HEK293 stably expressing Melanocortin receptor 3,,37000 ± 19000 nM
Nc1nc(CCCc2ccc(Cl)cc2)nn1S(=O)(=O)c1ccc2ccccc2c1,Lysophospholipase-like protein 1,"enzyme activity, activator, gel-based ABPP, FP-rhodamine",purified protein,,> 20000 nM
NS(=O)(=O)c1ccc(Cc2c(-c3ccc(F)c(C#CC4CCCC4)c3)nn(-c3nc(C(=O)O)cs3)c2CC2CC2)cc1F,LDHA,"thermal stabilisation, CETSA",HEK293,"3.5 min, 71 °C",40 nM
CC(=O)NCc1cn(CCc2c(C)[nH]c3cc(Cl)cc(Cl)c23)nn1,GLP1R,"cAMP accumulation, positive allosteric modulator, HTRF",CHO-K1 expressing GLP1R,"crude reaction product, with: GLP-1(9-36) at EC20",825 nM
NCC(c1ccc(O)cc1)c1ccc(Oc2ccccc2)cc1 (stereo not drawn),"Trace amine-associated receptor 1 (Rattus norvegicus, UniProt Q923Y9, M268T/N287Y)","cAMP production, agonist",,double mutant,~2000 nM
COc1ccc(S(=O)(=O)n2nc(SCc3ccc(Cl)cc3)nc2N)cn1,Lysophospholipase-like protein 1,"enzyme activity, activator, gel-based ABPP, FP-rhodamine",purified protein,,2200 nM
COc1ccc(C2(CNC(=O)[C@H](Cc3c[nH]c4ccccc34)NC(=O)Nc3ccc([N+](=O)[O-])cc3)CCCCC2)cc1,FPR2,"Ca2+ mobilization, agonist",HL-60 transfected with FPR2,,10400 ± 3500 nM
Cc1[nH]c2cc(Cl)cc(Cl)c2c1CCn1cc(COCCOCCO)nn1,GLP1R,"cAMP accumulation, positive allosteric modulator, HTRF",CHO-K1 expressing GLP1R,"crude reaction product, with: GLP-1(9-36) at EC20",395 nM
Cc1ccc(F)cc1S(=O)(=O)n1nc(SCc2ccccc2)nc1N,Lysophospholipase-like protein 1,"enzyme activity, activator, gel-based ABPP, FP-rhodamine",purified protein,,> 20000 nM
C#CCCCN1C(=O)C2(CN2[S+]([O-])C(C)(C)C)c2ccccc21 (stereo not drawn),"Myc proto-oncogene protein (MYC, Homo sapiens, UniProt P01106)","protein degradation, degrader, HiBiT",HEK293-LgBiT,24 h,> 50000 nM
[2H]C([2H])(C)N(C(=O)C1CCN(S(=O)(=O)c2ccc3[nH]ncc3c2)CC1)[C@@H]1CCc2ccccc21,"Muscarinic acetylcholine receptor M5 (CHRM5, Homo sapiens, UniProt P08912)","positive allosteric modulator, calcium mobilization",CHO cells expressing human M5,with: acetylcholine EC20,456 nM
CN(C(=O)Cc1c[nH]c2ccccc12)[C@H](C(=O)Nc1ccc(F)cc1)c1ccccc1,"Cystic fibrosis transmembrane conductance regulator (CFTR, Homo sapiens, UniProt P13569, del508-508)","potentiator, YFP halide quenching","FRT cells, expressing CFTR and YFP-H148Q/I152L",rescue 24 h at 27 °C,90 nM
Cc1cc(NC(=O)c2cccc(NC(=O)C3=CC(C)(C)CC3=O)c2)ccc1Nc1nccc(-c2cccnc2)n1,"Mitogen-activated protein kinase 8 (MAPK8, Homo sapiens, UniProt P45983)","JNK1 binding, NanoBRET",HEK293 cells,"2 h, with: tracer K-5",240 ± 70 nM
Cc1[nH]c2cc(Cl)cc(Cl)c2c1CCn1cc(CCN)nn1,GLP1R,"cAMP accumulation, positive allosteric modulator, HTRF",CHO-K1 expressing GLP1R,"crude reaction product, with: GLP-1(9-36) at EC20",1080 nM
COc1ccc(S(=O)(=O)N2CCCN(CC(=O)Nc3ccc(OC)cc3OC)CC2)cc1,GRM4,"calcium mobilization, positive allosteric modulator",CHO cells with Gqi5,with: glutamate EC20,> 10000 nM
Nc1nc(SCc2ccc(Cl)cc2)nn1S(=O)(=O)c1cccc([N+](=O)[O-])c1,"Lysophospholipase-like protein 1 (LYPLAL1, Homo sapiens, UniProt Q5VWZ2)","enzyme activity, activator, gel-based ABPP, FP-rhodamine",purified protein,,110 nM
O=C(Nc1ccc(F)cc1)C12CC1/C(=N\O)c1cc(Cl)ccc1O2 (stereo not drawn),GRM4,"calcium mobilization, positive allosteric modulator",CHO hmGluR4/Gqi5,with: glutamate EC20,3400 nM and ~3000 nM
CCCCCCCCCCCCCCCC(=O)OCCSC[C@H](NC(C)=O)C(=O)N[C@@H](CO)C(=O)OC,"Toll-like receptor 2 (TLR2, Homo sapiens, UniProt O60603)","NF-κB reporter gene, agonist, SEAP reporter",HEK-Blue hTLR2 cells,,0.66 nM
NCCCCNC(=O)[C@H](Cc1ccccc1)NC(=O)N1CCc2ccccc2C1,Melanocortin receptor 3,"reporter gene, agonist, β-galactosidase reporter",HEK293 stably expressing Melanocortin receptor 3,,> 100000 nM
COc1ccc(NC(=O)CN2CCCN(S(=O)(=O)c3ccc(Cl)cc3)CC2)c(OC)c1,GRM4,"calcium mobilization, positive allosteric modulator",CHO cells with Gqi5,with: glutamate EC20,4100 ± 600 nM
O=C(Nc1ccc([N+](=O)[O-])cc1)N[C@H](Cc1c[nH]c2ccccc12)C(=O)NCC1(c2ccccn2)CCCCC1,FPR2,"Ca2+ mobilization, agonist",HL-60 transfected with FPR2,,190 ± 60 nM
CCCn1c(NCc2cccc(F)c2O)nc2ccccc21,"Retinaldehyde dehydrogenase 3 (ALDH1A3, Homo sapiens, UniProt P47895)","enzyme activity, inhibitor, NADH absorbance 340 nm",,"pH 7.5, 25 °C, 200 µM NAD+, with: 100 µM propionaldehyde",1300 ± 620 nM
NS(=O)(=O)c1ccc(Cc2c(-c3ccc(F)c(C#CC4CC4)c3)nn(-c3nc(C(=O)O)cs3)c2CC2CC2)cc1F,LDHA,"thermal stabilisation, CETSA",HEK293,"3.5 min, 71 °C",40 nM
O=S(=O)(c1cccc(C(F)(F)F)c1)N1CCC(Cn2cnc3cccc(C(F)(F)F)c32)CC1,KCNT1,"thallium flux, activator",HEK293 expressing KCNT1,,6600 nM
COc1ccc(NC(=O)CN2CCCN(S(=O)(=O)c3ccccc3Cl)CC2)c(OC)c1,GRM4,"calcium mobilization, positive allosteric modulator",CHO cells with Gqi5,with: glutamate EC20,> 10000 nM
COc1ccc2c(c1)ncn2CC1CCN(S(=O)(=O)c2cccc(C(F)(F)F)c2)CC1,KCNT1,"thallium flux, activator",HEK293 expressing KCNT1,,2100 nM
Cc1nc(-c2ccc(OCC(C)C)c(C#N)c2)sc1C(N)=O,"Grm2/Grm4 (Rattus norvegicus, UniProt P31421+P31423)","thallium flux, positive allosteric modulator",HEK293 GIRK,with: glutamate EC20,2200 nM
Cc1[nH]c2cc(Cl)cc(Cl)c2c1CCn1cc(CCCCO)nn1,GLP1R,"cAMP accumulation, positive allosteric modulator, HTRF",CHO-K1 expressing GLP1R,"crude reaction product, with: GLP-1(9-36) at EC20",658 nM
NCCCCNC(=O)[C@H](Cc1ccc(Cl)cc1)NC(=O)N1CCc2ccccc2C1,"Melanocortin receptor 4 (Mus musculus, UniProt P56450)","reporter gene, agonist, β-galactosidase reporter",HEK293 stably expressing Melanocortin receptor 4,,> 100000 nM

# Repeated from above:
Structure (SMILES),target,assay,system,conditions,EC50
NS(=O)(=O)c1ccc(Cc2c(-c3ccc(F)c(C#CC4CCCC4)c3)nn(-c3nc(C(=O)O)cs3)c2CC2CC2)cc1F,LDHA,"thermal stabilisation, CETSA",HEK293,"3.5 min, 71 °C",40 nM
CC(=O)NCc1cn(CCc2c(C)[nH]c3cc(Cl)cc(Cl)c23)nn1,GLP1R,"cAMP accumulation, positive allosteric modulator, HTRF",CHO-K1 expressing GLP1R,"crude reaction product, with: GLP-1(9-36) at EC20",825 nM
NCC(c1ccc(O)cc1)c1ccc(Oc2ccccc2)cc1 (stereo not drawn),"Trace amine-associated receptor 1 (Rattus norvegicus, UniProt Q923Y9, M268T/N287Y)","cAMP production, agonist",,double mutant,~2000 nM
